Measured values gathered from unrelated publications.
Compare with care: the assays were run in different laboratories. “And” joins repeats or separate records; there may be more than shown. ± gives the spread as reported.
STING1 H232R: Stimulator of interferon genes protein (STING1, Homo sapiens, UniProt Q86WV6, H232R)

| Structure (SMILES) | tested on | test | system | conditions | scale | measurement | value |
| --- | --- | --- | --- | --- | --- | --- | --- |
| CSC(=S)N/N=C(\C)c1ccc(Nc2nnc(-c3ccc(Cl)cc3)c3ccccc23)cc1 | MCF7 | cell growth or viability, MTT | – | 0.312 µM, 24 h | – | viability | 23.9% |
| Cc1cccc(-c2cccc(C)n2)n1.Cc1cccc(-c2cccc(C)n2)n1.F[P-](F)(F)(F)(F)F.F[P-](F)(F)(F)(F)F.[Ru+2].c1ccc2c(-c3nc4c5cccnc5c5ncccc5c4[nH]3)c3ccccc3cc2c1 | SK-MEL-28 | cell viability | – | 1% O2, with: blue light 453 nm, 100 J/cm2 | – | EC50 | 36400 ± 1000 nM |
| CCCCCCc1cccc(C(O)CC(CO)NC(=O)CCCCCCCCCCNC(C)=O)c1 (centres unmarked) | HeLa | CERT activity, HPLC-MS/MS lipidomics, measured: sphingomyelin 22 | – | 1 µM, 24 h, not cell-number normalised | – | sphingomyelin level | 33700 pmol/sample and 23500 pmol/sample and 29100 pmol/sample |
| CCN(CC)CC(=O)Nc1cccc(-n2cc(-c3ccc4ccc(-c5cn(-c6cccc(NC(=O)CN(CC)CC)c6)nn5)cc4c3)nn2)c1 | RCC4 | PCR angiogenesis array, measured: NRP1 | – | 5 x IC50, 2 h, normoxia | relative to: untreated | fold regulation | 1.19 |
| Cc1ncsc1-c1ccc(C(C)NC(=O)C2CC(O)CN2C(=O)C(NC(=O)CCCCCCCCCCN2CCCC(Nc3ncc(Cl)c(Nc4ccccc4S(=O)(=O)C(C)C)n3)C2)C(C)(C)C)cc1 (centres unmarked) | 22Rv1 | RNA-seq, measured: ZNF248 mRNA | – | concentration not given | relative to: DMSO | log2 fold change | -1.05 |
| CCCC[C@H](NC(=O)COCCOCCNC(=O)CN1CCN(CC(=O)O)CCN(CC(=O)O)CC1)C(=O)N[C@H]1CC(=O)NCCCC[C@@H](C(N)=O)NC(=O)[C@H](Cc2c[nH]c3ccccc23)NC(=O)[C@H](CCCNC(=N)N)NC(=O)[C@@H](Cc2ccccc2)NC(=O)[C@H](Cc2c[nH]cn2)NC1=O [technetium-99m labelled] | – | – | C57 mouse, spleen | intravenous, 0.037 MBq, 2 h | – | tissue uptake | 0.17 ± 0.08 %ID/g |
| Cn1ncc2cc(-c3cncc(Cl)c3N3CCC4(CCNC4=O)CC3)ccc21 | LS174T | microarray, measured: NFE2L2 | – | concentration not given, 24 h, gene set NRF2 | relative to: untreated cells | fold change in expression | 2.44 |
| Cc1cc(NC2CCN(C)CC2)ccc1-c1cc2c(N3CCC[C@H](C(=O)NCc4ccc(OC(F)(F)F)cc4)C3)ncnc2[nH]1 | NCI-H3122 | cell growth or viability, MTT | – | 0.04 µg/mL, 72 h | – | inhibition | 47.4% |
| COC(=O)N1c2ccc3c(nc(Cc4ccccc4)n3[C@@H]3CCC[C@@H](C(=O)O)C3)c2CC[C@@H]1C | ZR-75-1 | cell growth or viability, ATP luminescence | – | 10 days | – | IC50 | 2200 nM |
| Cc1cccc(-c2cccc(C)n2)n1.Cc1cccc(-c2cccc(C)n2)n1.F[P-](F)(F)(F)(F)F.F[P-](F)(F)(F)(F)F.[Ru+2].c1ccc2c(c1)Cc1cc(-c3nc4c5cccnc5c5ncccc5c4[nH]3)ccc1-2 | SK-MEL-28 | resazurin | – | dark, 1% O2 | – | dark EC50 change hypoxia vs normoxia | no effect |
| CC(=O)Oc1ccccc1C(=O)[Se]CC(=O)Nc1cccc(C(F)(F)F)c1 | NCI60 prostate subpanel (PC-3, DU-145) | cell growth | – | 10 µM, 48 h, one-dose | – | mean growth percent | 16.9% |
| CN1CCCNC(=O)c2cccc(c2)C(=O)NCCCN(C)CCCNc2cccc3c2C(=O)c2cccc(c2C3=O)NCCC1 | SAS | RNA-Seq, measured: BAG1 mRNA | – | 1 µM, 6 h | relative to: untreated cells | log2 fold change | -0.685 |
| CO[C@@H]1[C@@H](OC(N)=O)[C@@H](O)[C@H](Oc2ccc3c(O)c(NC(=O)c4ccc(O)c(CC=C(C)C)c4)c(=O)oc3c2C)OC1(C)C | HCT-116 parental | – | – | 250 µM, replicate 1 | – | colony count | 1.55 |
| Cc1cc(Cl)cc(-c2ccnc3cc(CN4C(=O)C5C(C4=O)C5(C)C)sc23)c1C[C@@H]1CNCCO1 (some centres unmarked) | CHP-212 resistant subline R3 | annexin V/PI flow cytometry | – | 1 µM, 48 h | – | apoptotic cells | 15.6% and 16.3% and 17.4% |
| CCN(C(=O)c1cc(F)ccc1Oc1nncnc1N1CCC2(C1)CN([C@H](CCCN(C)CCOC)C(C)C)C2)C(C)C | A-431 | cell growth or viability | – | 7 days | – | GI50 | > 10000 nM |
| CN(C)c1ccc(-n2cc(COC(=O)[C@]3(C)C=C(C(=O)OC(C)(C)C)C(=O)CC3)nn2)cc1 | HeLa | quantitative western blot | – | concentration not given, 15 (unit not given), with: EGF | – | pERK/ERK ratio | 0.221 |
| CNS(=O)(=O)Nc1nccc(Cc2c(C)c3ccc(Oc4ncccc4F)cc3oc2=O)c1F | CL-40 | cell viability, CellTiter-Glo | – | 7 days | – | IC50 | 4.51 nM |
| O=C(C[Se]C(=O)C12CC3CC(CC(C3)C1)C2)Nc1cccc(C(F)(F)F)c1 | NCI60 prostate subpanel (PC-3, DU-145) | cell growth | – | 10 µM, 48 h, one-dose | – | mean growth percent | -54% |
| O=C(N1CCCC1)n1cc(-c2ccc(-c3ccccc3)cc2)nn1 | mouse T-cells | N-terminal labelling enrichment, measured: Niban N-terminal peptides | – | 1 nM, 6 h, single tryptic peptide | relative to: DMSO | SILAC ratio | 1.52 and 1.3 and 0.81 |
| Cc1cccc(-c2cccc(C)n2)n1.Cc1cccc(-c2cccc(C)n2)n1.F[P-](F)(F)(F)(F)F.F[P-](F)(F)(F)(F)F.[Ru+2].c1cc2ccc3ccc(-c4nc5c6cccnc6c6ncccc6c5[nH]4)c4ccc(c1)c2c34 | SK-MEL-28 | – | – | 1% O2, with: blue light 453 nm, 100 J/cm2 | relative to: dark over light EC50 | phototoxicity index | 2 |
| Cc1nn(-c2cccc(N)c2)c(=O)c2cnc(Nc3ccc(N4CCNCC4)cc3)nc12 | Serine/threonine-protein kinase Sgk1 (SGK1, Homo sapiens, UniProt O00141) | kinase activity, inhibitor, SelectScreen kinase profiling | – | – | – | IC50 | 928 nM |

| Structure (SMILES) | tested on | test | system | conditions | scale | measurement | value |
| --- | --- | --- | --- | --- | --- | --- | --- |
| CCC(=CCc1c(O)cc2c(c1O)C(=O)CC(c1ccc(O)cc1)O2)CC (centres unmarked) | HeLa | annexin V/PI staining | – | 48 µM, 48 h | – | early apoptotic cells | 0.12 ± 0.01% |
| COC(=O)c1cc(NC2=NC(=O)C(=Cc3ccc(C)cc3)S2)ccc1OC(C)=O | MCF7 | GC-MS, measured: Stearic acid | – | 1 µM | relative to: DMSO | metabolite level | 1.13 fold change |
| O=C(C[Se]C(=O)c1ccccc1Nc1cccc(C(F)(F)F)c1)Nc1cccc(C(F)(F)F)c1 | NCI60 prostate subpanel (PC-3, DU-145) | cell growth | – | 10 µM, 48 h, one-dose | – | mean growth percent | -84.6% |
| Nc1ncc(-c2cc(-c3cnn(CC(F)(F)F)c3)ncc2F)nc1C(=O)NC1CNCC(F)C1 (centres unmarked) | ACVR2A | KINOMEscan | – | 1 µM | relative to: DMSO control | remaining binding | 93% |
| COc1cccc(OC)c1-c1cc(C(=O)NC2(C(=O)O)C3CC4CC(C3)CC2C4)nn1-c1ccc(C(=O)N(C)CCCN(C)CCCN(C)C(=O)[C@H](CCCCNC(=O)[C@H](CC(C)C)NC(=O)C2OC2C(=O)O)NC(=O)CN2CCN(CC(=O)[O-])CCN(CC(=O)[O-])CCN(CC(=O)[O-])CC2)cc1C(C)C.[177Lu+3] (mixture of isomers) | HT-29 | – | – | concentration not given, 30 min | relative to: added activity | internalized fraction | 3.26 ± 0.29% |
| O=C(NCC[C@H](NS(=O)(=O)c1ccc(-c2ccccc2)cc1)c1nc2ccccc2[nH]1)c1ccc([N+](=O)[O-])o1 | STING1 H232R | reporter gene, inhibitor | THP1-Dual KI-hSTING-R232 | 24 h, 1 h preincubation, with: diABZI 500 nM | – | EC50 | 2500 nM |
| CC(C)C[C@H](NC(=O)[C@H](Cc1ccc(O)cc1)NC(=O)[C@@H](CCCNC(=N)N)NC(=O)[C@@H](CO)NC(=O)[C@H](Cc1ccccc1)NC(=O)[C@H](CC1CCCCC1)NC(=O)[C@H](CC(=O)O)NC(=O)CN1CCN(CC(=O)O)CCN(CC(=O)O)CCN(CC(=O)O)CC1)C(=O)N[C@@H](Cc1c[nH]c2ccccc12)C(=O)N[C@@H](CO)C(=O)O [copper-64 labelled] | – | – | human, small intestine | concentration not given, 1 h | – | activity concentration | 2430 Bq/mL and 2130 Bq/mL and 2210 Bq/mL and 2010 Bq/mL and 3090 Bq/mL and 3040 Bq/mL |
| CC1(C)CC[C@@]2(CO)C(=C3C=C[C@@H]4[C@@]5(C)CC[C@H](O)[C@@](C)(CO)[C@@H]5CC[C@@]4(C)[C@]3(C)C[C@@H]2O)C1 | HepG2, negative control siRNA | Western blot, measured: mTOR | – | concentration not given, high dose, unit not given, with: ethanol | relative to: β-actin | protein level | 0.843 and 1.06 and 0.921 |
| C=CC(=O)Nc1cccc(Cn2ncc3cnc(Nc4cnn(CCOC)c4)nc32)c1 | human ABL1(T315I)-phosphorylated | KINOMEscan | – | 100 nM | relative to: control | binding | 14% |
| O=C(N[C@@H](CCNC(=O)c1ccc([N+](=O)[O-])o1)c1nc2ccccc2[nH]1)c1ccc(-c2ccccc2)cc1 | STING1 H232R | reporter gene, inhibitor | THP1-Dual KI-hSTING-R232 | 24 h, 1 h preincubation, with: diABZI 500 nM | – | EC50 | 6800 nM |
| CC(C)c1ccc(N(C)c2ccc3c(c2)OCC[C@H]3CNc2cnccc2C(=O)O)cc1 | TE-8 | cell growth or viability, ATP luminescence | – | 7 days | – | IC50 | ≥ 10000 nM |
| CC(=O)N1c2ccc(-c3ccc(CNC(=O)c4cn5cc(-c6cnc(N)nc6)nc(N6CCOCC6)c5n4)cc3)cc2CC[C@@H]1C | cancer cell line panel | CellTiter-Glo | – | 5 d, range over 64 cell lines | – | GI50 | 8.8 to 814 nM |
| C=CC(=O)N1[C@@H](c2ccc3c(c2)OCO3)c2[nH]c3ccccc3c2C[C@H]1C(=O)NC1CC1 | rat DRG neurons | – | – | 0.01372 µM, 48 h, with: vincristine 40 nM | – | neuron degeneration | 83.2% and 82.6% |
| COC1CN([C@H]2CC[C@H]([C@@]3(C)Oc4c(Cl)cc(C(=O)NCc5c(SC)cc(C)[nH]c5=O)c(C)c4O3)CC2)C1 | – | RNA-seq, measured: CBS | human, whole blood | dose not given, 24 h | relative to: pretreatment baseline | log2 fold change | 1.06 |
| O=C(C[Se]C(=O)c1ccccc1Nc1ccccc1)Nc1cccc(C(F)(F)F)c1 | NCI60 breast subpanel mean | cell growth | – | – | – | TGI | 4290 nM |
| COc1ccccc1-c1ccncc1C(=O)Nc1nnc(OCc2ccc(Cl)cc2)s1 | MDA-MB-436 BRCA1-mutant | – | – | 3 µM, single replicate | relative to: untreated | colony survival | 40.5% and 55.3% and 50% |
| FC(F)(F)c1cc2nc(c1)CNCc1cc(C(F)(F)F)cc(n1)CNC2.[Cu+2] | – | superoxide dismutase-like activity, McCord-Fridovich NBT | cell-free system | pH 7.8, with: xanthine/xanthine oxidase | – | IC50 | 59 nM |
| O=C(C[Se]C(=O)c1cc2ccccc2s1)Nc1cccc(C(F)(F)F)c1 | NCI60 prostate subpanel (PC-3, DU-145) | cell growth | – | 10 µM, 48 h, one-dose | – | mean growth percent | -81.7% |
| CO[C@@H]1[C@@H](OC(=O)c2ccc(C)[nH]2)[C@@H](O)[C@H](Oc2ccc3c(O)c(NC(=O)c4c[nH]c(C(=O)Nc5c(O)c6ccc(O[C@@H]7OC(C)(C)[C@H](OC)[C@@H](OC(=O)c8ccc(C)[nH]8)[C@H]7O)c(C)c6oc5=O)c4C)c(=O)oc3c2C)OC1(C)C | HaCaT Tet-On cells, uninduced | – | – | 15 µM | relative to: DMSO | cell number | 17% |
| COc1cc2nc(c1)CNCc1cc(OC)cc(n1)CNC2.[Cu+2] | – | superoxide dismutase-like activity, McCord-Fridovich NBT | cell-free system | pH 7.8, with: xanthine/xanthine oxidase | – | IC50 | 679 nM |

For quick reference, copied from above:
| Structure (SMILES) | tested on | test | system | conditions | scale | measurement | value |
| --- | --- | --- | --- | --- | --- | --- | --- |
| FC(F)(F)c1cc2nc(c1)CNCc1cc(C(F)(F)F)cc(n1)CNC2.[Cu+2] | – | superoxide dismutase-like activity, McCord-Fridovich NBT | cell-free system | pH 7.8, with: xanthine/xanthine oxidase | – | IC50 | 59 nM |
| O=C(C[Se]C(=O)c1cc2ccccc2s1)Nc1cccc(C(F)(F)F)c1 | NCI60 prostate subpanel (PC-3, DU-145) | cell growth | – | 10 µM, 48 h, one-dose | – | mean growth percent | -81.7% |
| CO[C@@H]1[C@@H](OC(=O)c2ccc(C)[nH]2)[C@@H](O)[C@H](Oc2ccc3c(O)c(NC(=O)c4c[nH]c(C(=O)Nc5c(O)c6ccc(O[C@@H]7OC(C)(C)[C@H](OC)[C@@H](OC(=O)c8ccc(C)[nH]8)[C@H]7O)c(C)c6oc5=O)c4C)c(=O)oc3c2C)OC1(C)C | HaCaT Tet-On cells, uninduced | – | – | 15 µM | relative to: DMSO | cell number | 17% |
